Measured values pooled from the literature.
Numbered parts are unrelated; each lists some results of a single study. Changes are numbered by the printed parent chain.

Study 1
Target: Sal-like protein 4, full length isoform B (SALL4, Homo sapiens, UniProt Q9UJQ4-2, residues 1-616)
Method: universal PBM
Form: double-stranded DNA, one strand shown
Sample: in vitro
Concentration: not given
Notes: 8-mer, flanks averaged, mean of replicates
Direction: higher = stronger binding
Construct (chain): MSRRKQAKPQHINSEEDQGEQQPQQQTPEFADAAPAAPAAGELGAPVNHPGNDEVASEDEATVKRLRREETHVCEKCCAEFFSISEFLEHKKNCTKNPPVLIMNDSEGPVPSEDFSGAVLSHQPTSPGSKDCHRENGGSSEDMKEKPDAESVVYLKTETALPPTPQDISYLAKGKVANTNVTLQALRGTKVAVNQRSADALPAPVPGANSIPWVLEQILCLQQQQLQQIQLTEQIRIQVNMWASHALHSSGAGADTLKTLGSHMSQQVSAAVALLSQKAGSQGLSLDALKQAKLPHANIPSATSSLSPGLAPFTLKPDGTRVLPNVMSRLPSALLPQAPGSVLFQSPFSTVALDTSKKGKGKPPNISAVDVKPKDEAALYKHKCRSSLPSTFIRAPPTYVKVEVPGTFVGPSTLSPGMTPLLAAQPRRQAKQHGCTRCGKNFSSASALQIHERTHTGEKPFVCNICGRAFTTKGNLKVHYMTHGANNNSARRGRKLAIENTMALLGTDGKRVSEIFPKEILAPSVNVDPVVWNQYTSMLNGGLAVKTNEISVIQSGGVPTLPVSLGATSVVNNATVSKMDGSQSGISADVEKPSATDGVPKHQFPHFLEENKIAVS
Oligonucleotide	E-score
AATCAACC	-0.0759
CCTCGAAA	0.0589
GAGGGCAA	-0.0876
CTACTAAG	-0.0537
AGACGACC	-0.0384
AACACACA	0.112
AGATAACC	0.0455
CCTCTTGA	0.0512
CCCCGACC	-0.294
AATCTACT	0.129
CAAGAGGG	-0.0314
GCAGATAA	0.101
CCCTCCAG	-0.305
ATTACATG	0.361
AGGCGATC	-0.129
AAAAACAC	0.103
CTTCATCC	0.0028
CGTGGTCC	-0.309
CCCACATC	0.00373
CCTCTAAC	-0.166
AAGTTAGG	-0.0837
ATCAACTG	-0.00798
TAGGCCTA	0.114
ACCGTATC	-0.0833
ATTGGCAA	0.225

Study 2
Organism: Saccharomyces cerevisiae
Effect on: binding
Method: competitive growth deep sequencing
Form: peptide
Strain: cyclin D3-Cln2 fusion strain
Concentration: concentration not given
Notes: tiling library, Cln2 subtracted
Direction: direction not given
Molecule	growth enrichment score
QDYERRLLRQIVIQNE	-0.454
RKLDLEGIGR	0.829
PKNAKRNLSSEFAN	-0.443

Study 3
Target: ABI1, truncated, D143A, DHFR fusion (Arabidopsis thaliana)
Method: DHFR PCA, deep sequencing
Sample: yeast
Notes: methotrexate growth selection, single substitutions
Added: (+)-ABA 0.11 µM
Relative to: wild-type fitted maximum
Direction: higher = stronger binding
Parent: PYL1, truncated, DHFR fusion (Arabidopsis thaliana); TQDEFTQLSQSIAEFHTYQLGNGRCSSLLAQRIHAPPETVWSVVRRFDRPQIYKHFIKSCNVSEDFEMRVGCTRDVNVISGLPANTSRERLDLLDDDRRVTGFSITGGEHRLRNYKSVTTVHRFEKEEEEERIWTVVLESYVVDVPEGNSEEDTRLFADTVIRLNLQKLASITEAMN
Substitution	relative binding score
N77H	62.2%
G23Q	3.81%
L29C	6.81%
G81H	-1.71%
G71H	6.01%
P37M	3.75%
A30R	9.59%
C25T	52.7%

Study 4
Target: Prothrombin, mature alpha-thrombin (F2, Homo sapiens, UniProt P00734)
Method: aptamer microarray, sandwich
Form: DNA with 2'F-ANA
Sample: in vitro
Concentration: 200 nM
Notes: whole 15-mer aptamer, many near background
Added: Cy3 exosite-II aptamer, 400 nM
Direction: higher = stronger binding
Oligonucleotide: GGTTGGTGTGGTTGG
Modification	mean fluorescence intensity
2'F-ANA at 1 4 5 6 7 9 11 12 14	132 a.u.
2'F-ANA at 2 6 7 9 10 12 13 14	81.5 a.u.
2'F-ANA at 1 2 3 5 7 8 10 11 12 14	49.2 a.u.
2'F-ANA at 2 3 4 5 6 7 9 11 12 13 14 15	51.2 a.u.
2'F-ANA at 1 6 8 10 11 12 14	48.5 a.u.
2'F-ANA at 1 3 8 10 13 14 15	81.3 a.u.
2'F-ANA at 1 2 3 5 7 11 12 13 14	220 a.u.
2'F-ANA at 1 3 4 7 10 12 13 15	70.3 a.u.
2'F-ANA at 2 3 7 8 10 11 14	261 a.u.
2'F-ANA at 1 3 5 8 11 12	126 a.u.
2'F-ANA at 3 4 6 7 8 9 12 13 14 15	247 a.u.
2'F-ANA at 1 3 4 7 10 12 13 14 15	115 a.u.
2'F-ANA at 1 2 3 6 7 8 9 14 15	72.1 a.u.
2'F-ANA at 7 8 10	180 a.u.
2'F-ANA at 3 6 10 14 15	362 a.u.
2'F-ANA at 1 3 4 5 7 10 11 12 13	47.6 a.u.
2'F-ANA at 3 6 7 8 11 12 13 14 15	581 a.u.
2'F-ANA at 1 2 4 5 6 7 8 9 10 11 12 13	52.1 a.u.
2'F-ANA at 1 2 5 6 11	51.8 a.u.
2'F-ANA at 1 3 6 7 8 11 12 13 15	443 a.u.
2'F-ANA at 5 6 7 12 13 15	107 a.u.
2'F-ANA at 1 12 14	72 a.u.

For quick reference, copied from above (study 1):
Oligonucleotide	E-score
CAAGAGGG	-0.0314
GCAGATAA	0.101
CCCTCCAG	-0.305
ATTACATG	0.361
